Experimental data pooled from the literature.
Numbered parts are unrelated; each lists some results of a single study.

Study 1
Target: RNA binding protein fox-1 homolog 2, RRM domain, GST-SBP tag (RBFOX2, Homo sapiens, UniProt O43251-10, residues 100-194)
Technique: RNA Bind-n-Seq
Form: RNA
Matrix: in vitro
Concentration: 365 nM
Notes: natural RNA segment, single round, ends assumed
Reference: no-protein control
Reading: higher = stronger binding
Shared flanks, not repeated: GGGAGUUCUACAGUCCGACGAUC … UGGAAUUCUCGGGUGCCAA
Residues (chain): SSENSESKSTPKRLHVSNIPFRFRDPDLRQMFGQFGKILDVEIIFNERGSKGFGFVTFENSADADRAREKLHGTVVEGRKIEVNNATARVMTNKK
Sequence	RBNS enrichment (R)
AGGAGAUACUAGAGGCUCAGACAGCAGGCAUGUAUCCCCAUGGGGAAUAUGUGAGGACCUGGACCGCUGGCUGCCUCAGCUGUACCUGGUUUUAAAUGCAGCUUUCUGUA	0.587
GAGGGAGAGGUGGUGUGGCUUGCCCUGCUGAGCCUUCUCGGCAGGAAUAAUAGUAAUAAAUGCACUUUUCACACUAAAAGUUUCUUUGUUCUCCUGUUAAGCCUAGAUCU	0.29
UGAGCGUGGAUCUGAACACCACAGCCCCUGUACUUGGGUUGCCUCUUGUCCCUGAACUUCGUUGUACCAGUGCAUGGAGAGAAAAUUUUGUCCUCUUGUCUUAGAGUUGU	1.14
UCACCCUAUGGCCUGAGUCCAAUCCCUAGAACUGUGGUUUCCUCCAGUGUGACUUGUCCUGAUCAGGUAGAGAGAGCUUGUGGUCAUAUUCCCCAAUGGGCAUGCCUGUG	0.807
UGUUCGAAGCUGUCUGGUAAUGCCCCCAUCUCUCCCCGGGUCCAGUGGAUUUUUUUAACUAUUAUUCAAAAGCAAAACUGAGUUUUGUUUUGUUUGGUUUUUUAAGAAGA	0.277
UUGUUUUCUUUGGCCCAAGGGUAAACUAAAAUACCUGUGAACUGCAAACUUGCUUGUGAUUGACUUGGUGCAAUACAGUUCCUUUCUAAACGUUUCUGGUUUAGAGAAUA	6.24
GGAAGGCAGGCCUGAGCCAUUCACCACGGACAGGAAGAGCAGCUCUGGCUAUCACCACUGGCCUCUGGGGUCUUCAUAUCUUGCCAUCUCAUCCAGGGUUCCAUGAAAGU	0.373
GGAGCCAGUACCACUUCCAGCAGUGAGAGCUUUGAGGAGGAGAAGGGGCCUGGGCUCGGCCUAGCCAGCGCUCUCCCAGAAUUGAACACUUUCUGCCUGGGAUGUCUGCU	0.658

Study 2
Target: Replicase polyprotein 1ab, nsp13 helicase (rep, Severe acute respiratory syndrome coronavirus 2, UniProt P0DTD1)
Action: inhibitor
Concentration: 20 µM
SMILES	inhibition
CCCNC(C)(C)COC(=O)c1ccccc1	4.81%
N[C@H]1CC[C@H](N[C@@H]2C[C@H]2c2ccccc2)CC1	4.32%
Cc1ccc(S(=O)(=O)Cc2nc(-c3ccc(C(=O)NCc4cccnc4)cc3)oc2C)cc1	4.67%
COc1cccc(C(=O)CCN[C@@H](C)[C@H](O)c2ccccc2)c1	7.86%
CC(C)(O/N=C(\C(=O)N[C@@H]1C(=O)N2C(C(=O)[O-])=C(C[n+]3ccccc3)CS[C@H]12)c1csc(N)n1)C(=O)O	6.81%
Fc1ccc2c(CCNCc3cccc(OCC(F)(F)C(F)F)c3)c[nH]c2c1	12.1%
CC(C)N1Cc2cc(S(C)(=O)=O)ccc2N(CCN2CC=C(c3c[nH]c4cc(F)ccc34)CC2)S1(=O)=O	5.99%
C=C1/C(=C\C=C2/CCC[C@]3(C)[C@@H]([C@H](C)/C=C/[C@H](C)C(C)(C)O)CC[C@@H]23)C[C@@H](O)C[C@@H]1O	9.28%
O=C(NCCCCN1CCN(c2cccc(Cl)c2Cl)CC1)c1ccc2c(c1)Cc1ccccc1-2	-4.12%
O=C1c2ccccc2CCC1CNCCc1ccc(O)cc1 (centres unmarked)	7.81%
CC1=NN=C(c2ccc(N)cc2)c2cc3c(cc2C1)OCO3	4.14%
CCN(CC)CCOCCOC(=O)C(CC)(CC)c1ccccc1	-0.29%
CNCC[C@H](Oc1cccc2ccccc12)c1cccs1	5.55%
NC(=O)Nc1sc(-c2ccc(F)cc2)cc1C(N)=O	3.51%
CCOC(=O)OC(C)OC1=C(C(=O)Nc2ccccn2)N(C)S(=O)(=O)c2ccccc21 (centres unmarked)	11.2%
COC[C@H]1OC(=O)c2coc3c2[C@@]1(C)C1=C(C3=O)[C@@H]2CCC(=O)[C@@]2(C)C[C@H]1OC(C)=O	7.69%
CN1CCCN=C1/C=C/c1cccs1	12.6%
C[C@]12CC[C@H](O)CC1=CC[C@@H]1[C@@H]2CC[C@]2(C)C(c3cccnc3)=CC[C@@H]12	5.6%
CC12CCC(C(Br)C1=O)C2(C)C (centres unmarked)	-3.06%
O=C(O)CCCc1c[nH]c2ccccc12	6.46%
O=C1Nc2ccccc2/C1=C1/Nc2ccccc2C1=O	5.98%
OC[C@H]1O[C@@H](O[C@@H]2[C@@H](CO)OC(O)(CO)[C@H]2O)[C@H](O)[C@@H](O)[C@H]1O (mixture of isomers)	1.67%
O=C(Oc1ccc([N+](=O)[O-])cc1)N1CCN(Cc2cccc(Oc3ccccc3)c2)CC1	7.49%
CC(C(=O)O)c1ccc2c(c1)CC(=O)c1ccccc1S2 (centres unmarked)	6.04%
CCc1cc2c(s1)-n1c(C)nnc1CN=C2c1ccccc1Cl	0.08%

Study 3
Target: Interferon regulatory factor 5, full length, phosphomimetic (IRF5, Homo sapiens, UniProt Q13568-2, residues 1-514, S451D/S453D/S456D/S462D)
Technique: protein-binding microarray
Form: double-stranded DNA, one strand shown
Matrix: in vitro
Concentration: 940 nM top
Notes: 60-bp whole probe
With: salmon DNA 0.4 mg/ml
Reference: random background probes
Reading: higher = stronger binding
Shared flanks, not repeated: GCCTAGCAC … GTCTTGATTCGCTTGACGCTGCTG
Sequence	fitted relative affinity
GTCGGTATCGGACTGGGGACGTGCTAG	4.21 z-score
GACGGTTTCGACTATCGGGACGTGCTA	8.32 z-score
GACGATATCGGTCTCGGGACGTGCTAG	1.33 z-score
GTAGGTTTCGACACTGGGTTAGTGCTA	7.04 z-score
TTACATATCGGGACTGGATTAGTGCTA	-0.011 z-score
GACGATAACGGGACTGGAGACGTGCTA	-0.369 z-score
TCAAACCTGGGTCTCTGACTGTGCTAG	-0.71 z-score
TTAGATATCAGTTTCGTTTAGTGCTAG	5.87 z-score

Study 4
Target: Replicase polyprotein 1ab, main protease (rep, Severe acute respiratory syndrome coronavirus 2, UniProt P0DTD1)
Observed: enzyme activity
Action: inhibitor
Concentration: 20 µM
Notes: hit confirmation
Structure (SMILES)	inhibition [%]
C=C(CC)C(=O)c1ccc(OCC(=O)O)c(Cl)c1Cl	-8.3
O=C(O)c1ccc(SSc2ccc(C(=O)O)cn2)nc1	98.9
CC(C)(C)c1cc(O)c(C(C)(C)C)cc1O	-1.8
COc1ccc2[nH]c(S)nc2c1	81.4

Study 5
Cell line: HEK-293T
Observed: pseudovirus infection
Technique: FDA-approved drug library screen
Organism: VSV pseudotyped with SARS-CoV-2 spike
Concentration: 10 µM
Time: 16 h
Reference: vehicle-treated
Structure (SMILES)	GFP-positive cells [%]
CCOc1ccc2ccccc2c1C(=O)N[C@@H]1C(=O)N2[C@@H]1SC(C)(C)[C@@H]2C(=O)O	75.7
CC(C)[N+](C)(CCOC(=O)C1c2ccccc2Oc2ccccc21)C(C)C	95.9
CC(=O)O[C@@]12CO[C@@H]1C[C@H](O)[C@@]1(C)C(=O)[C@H](O)C3=C(C)[C@@H](OC(=O)[C@H](O)[C@@H](NC(=O)OC(C)(C)C)c4ccccc4)C[C@@](O)([C@@H](OC(=O)c4ccccc4)[C@H]21)C3(C)C	98.1
COc1ccc([C@@H]2Sc3ccccc3N(CCN(C)C)C(=O)[C@@H]2OC(C)=O)cc1	85.1
Nc1nc(=O)c2nc(CNc3ccc(C(=O)N[C@@H](CCC(=O)O)C(=O)O)cc3)cnc2[nH]1	77.4
